Assay results collected from several papers.
Lines come from different studies, so protocols differ. ± marks the error that the study gave.
Cell line: HeLa

For `CC[C@H](C)[C@@H]([C@@H](CC(=O)N1CCC[C@H]1[C@H](OC)[C@@H](C)C(=O)N[C@@H](Cc1ccccc1)C(=O)O)OC)N(C)C(=O)[C@@H](NC(=O)[C@H](C(C)C)N(C)C(=O)CCSSC[C@H](NC(=O)[C@@H](NC(=O)CNC(=O)[C@H](CCC(=O)O)NC(=O)[C@H](CC(=O)O)NC(=O)[C@H](C)NC(=O)[C@H](CC(=O)O)NC(=O)[C@@H](NC(=O)[C@H](CC(C)C)NC(=O)[C@H](CC(C)C)NC(=O)[C@H](C)NC(=O)[C@H](CC(C)C)NC(=O)[C@H](CC(=O)O)NC(=O)[C@H](CC(C)C)NC(=O)[C@H](CC(C)C)NC(=O)[C@H](CC(C)C)NC(=O)[C@H](CC(C)C)NC(=O)[C@@H]1CCCN1C(=O)[C@@H](NC(=O)[C@@H](NC(=O)[C@H](Cc1ccccc1)NC(=O)[C@H](CC(C)C)NC(=O)[C@H](Cc1c[nH]c2ccccc12)NC(=O)[C@H](CC(=O)O)NC(=O)[C@H](C)NC(=O)[C@H](Cc1ccc(O)cc1)NC(=O)[C@H](CCCNC(=N)N)NC(=O)[C@H](C)NC(=O)[C@H](Cc1c[nH]c2ccccc12)NC(=O)[C@H](Cc1ccc(O)cc1)NC(=O)[C@@H](NC(=O)[C@@H]1CCCN1C(=O)[C@H](CC(N)=O)NC(=O)[C@H](CCC(N)=O)NC(=O)[C@H](CCC(=O)O)NC(=O)[C@H](C)NC(=O)[C@H](C)N)[C@@H](C)CC)[C@@H](C)O)[C@@H](C)O)C(C)C)[C@@H](C)O)C(=O)NCC(N)=O)C(C)C`, the selectivity ratio was 22 fold (cell growth, MTT; 2 h; baseline: IC50 pH 7.4 over IC50 pH 5.0).
With `N.N.[Cl][Pt][Cl]` the IC50 was 17600 ± 5700 nM (cell growth, MTT; 48 h, LED photolysed 1 h).
The growth inhibition of `C[C@@H](N)[C@H](O)CCCCCCCC(=O)CCCCCCCCCCCCCC[C@@H](O[C@@H]1O[C@H](CO)[C@H](O)[C@H](O)[C@H]1O)[C@@H](C)N` is reported as 99 ± 0.16% (cytotoxicity; concentration not given).
`COc1cc(C)[nH]c(=O)c1CNC(=O)c1c(C)n([C@H](C)C2CCN(CC(F)(F)F)CC2)c2ccccc12` has an EC50 of 26 nM (histone methylation reduction, AlphaLISA, refers to: H3K27me3; 72 h).
`CC(N)C(O)CCCCCCCCCCCCCCC(=O)CCCCCCCC(O)C(C)N` (centres unmarked) has a growth inhibition of 99 ± 0.12% (cytotoxicity; concentration not given).
For `CCCCCCCCCCCCCCC(Br)C(=O)O` (centres unmarked), “mitochondrial area decrease” read 2.8 fold (150 µM, 1 h; baseline: methyl palmitate).
`CC[C@H](C)[C@@H]([C@@H](CC(=O)N1CCC[C@H]1[C@H](OC)[C@@H](C)C(=O)N[C@H](C)[C@@H](O)c1ccccc1)OC)N(C)C(=O)[C@@H](NC(=O)[C@H](C(C)C)N(C)C(=O)OCc1ccc(NC(=O)[C@H](CCCNC(N)=O)NC(=O)[C@@H](NC(=O)CCCCCN2C(=O)CC(SCCC(=O)N[C@@H](Cc3cn(CCOCCNCCCCCCOc4cc(OCCCc5c(C)n[nH]c5C)cc(C(=O)O)c4)nn3)C(=O)NCCCCCC(=O)NCCCC[C@H](NC(=O)N[C@@H](CCC(=O)O)C(=O)O)C(=O)O)C2=O)C(C)C)cc1)C(C)C` (some centres unmarked) gave an IC50 of 784 nM (cell proliferation, MTT; with: transthyretin).
`CC[C@H](C)[C@@H]([C@@H](CC(=O)N1CCC[C@H]1[C@H](OC)[C@@H](C)C(=O)N[C@@H](Cc1ccccc1)C(=O)O)OC)N(C)C(=O)[C@@H](NC(=O)[C@H](C(C)C)N(C)C(=O)CCSSC[C@H](NC(=O)[C@@H](NC(=O)CNC(=O)[C@H](CCC(=O)O)NC(=O)[C@H](CC(=O)O)NC(=O)[C@H](C)NC(=O)[C@H](CC(=O)O)NC(=O)[C@@H](NC(=O)[C@H](CC(C)C)NC(=O)[C@H](CC(C)C)NC(=O)[C@H](C)NC(=O)[C@H](CC(C)C)NC(=O)[C@H](CCCC(=O)O)NC(=O)[C@H](CC(C)C)NC(=O)[C@H](CC(C)C)NC(=O)[C@H](CC(C)C)NC(=O)[C@H](CC(C)C)NC(=O)[C@@H]1CCCN1C(=O)[C@@H](NC(=O)[C@@H](NC(=O)[C@H](Cc1ccccc1)NC(=O)[C@H](CC(C)C)NC(=O)[C@H](Cc1c[nH]c2ccccc12)NC(=O)[C@H](CC(C(=O)O)C(=O)O)NC(=O)[C@H](C)NC(=O)[C@H](Cc1ccc(O)cc1)NC(=O)[C@H](CCCNC(=N)N)NC(=O)[C@H](C)NC(=O)[C@H](Cc1c[nH]c2ccccc12)NC(=O)[C@H](Cc1ccc(O)cc1)NC(=O)[C@@H](NC(=O)[C@@H]1CCCN1C(=O)[C@H](CC(N)=O)NC(=O)[C@H](CCC(N)=O)NC(=O)[C@H](CCC(=O)O)NC(=O)[C@H](C)NC(=O)[C@H](C)N)[C@@H](C)CC)[C@@H](C)O)[C@@H](C)O)C(C)C)[C@@H](C)O)C(=O)NCC(N)=O)C(C)C` gave a selectivity ratio of 67 fold (cell growth, MTT; 2 h; baseline: IC50 pH 7.4 over IC50 pH 5.0).
`COc1c(C)c2c(c(O)c1C/C=C(\C)CCC(=O)O)C(=O)OC2` gave an IC50 of 1410 nM (cell proliferation).
With `CC[C@H](C)[C@@H]([C@@H](CC(=O)N1CCC[C@H]1[C@H](OC)[C@@H](C)C(=O)N[C@@H](Cc1ccccc1)C(=O)O)OC)N(C)C(=O)[C@@H](NC(=O)[C@@H](NC)C(C)C)C(C)C` the IC50 was 834 ± 40 nM (cell growth, MTT; 72 h).
For `CCCCCCCCc1ccc(C(=O)Nc2ccccc2C(=O)OCC)cc1`, the IC50 was over 100000 nM (cell proliferation).

For quick reference, copied from above:
The growth inhibition of `C[C@@H](N)[C@H](O)CCCCCCCC(=O)CCCCCCCCCCCCCC[C@@H](O[C@@H]1O[C@H](CO)[C@H](O)[C@H](O)[C@H]1O)[C@@H](C)N` is reported as 99 ± 0.16% (cytotoxicity; concentration not given).
